Measured values of several laboratories.
Parts stem from different laboratories: compare values within a part only.
Chain of UniProt Q8TDX7 (whole entry, looked up): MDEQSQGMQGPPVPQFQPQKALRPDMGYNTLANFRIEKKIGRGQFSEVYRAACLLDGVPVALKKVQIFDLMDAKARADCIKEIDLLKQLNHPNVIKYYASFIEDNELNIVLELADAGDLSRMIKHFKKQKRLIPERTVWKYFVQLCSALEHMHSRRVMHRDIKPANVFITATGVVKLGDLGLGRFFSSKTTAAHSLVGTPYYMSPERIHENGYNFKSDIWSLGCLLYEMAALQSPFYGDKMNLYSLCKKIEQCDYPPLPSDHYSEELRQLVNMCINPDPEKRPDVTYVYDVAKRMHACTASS
Chain of UniProt P78356 (whole entry, looked up): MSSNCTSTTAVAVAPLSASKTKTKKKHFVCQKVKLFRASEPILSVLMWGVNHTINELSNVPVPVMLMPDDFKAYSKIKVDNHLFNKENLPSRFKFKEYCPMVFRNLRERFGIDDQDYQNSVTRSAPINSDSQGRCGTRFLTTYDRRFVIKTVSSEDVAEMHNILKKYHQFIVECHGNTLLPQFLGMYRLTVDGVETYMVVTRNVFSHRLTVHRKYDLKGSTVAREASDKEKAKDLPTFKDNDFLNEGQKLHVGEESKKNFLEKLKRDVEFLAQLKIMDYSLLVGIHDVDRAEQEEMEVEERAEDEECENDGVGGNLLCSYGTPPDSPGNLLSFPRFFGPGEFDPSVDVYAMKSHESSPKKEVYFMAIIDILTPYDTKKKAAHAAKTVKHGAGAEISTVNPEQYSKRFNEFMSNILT
Chain of UniProt Q13705 (whole entry, looked up): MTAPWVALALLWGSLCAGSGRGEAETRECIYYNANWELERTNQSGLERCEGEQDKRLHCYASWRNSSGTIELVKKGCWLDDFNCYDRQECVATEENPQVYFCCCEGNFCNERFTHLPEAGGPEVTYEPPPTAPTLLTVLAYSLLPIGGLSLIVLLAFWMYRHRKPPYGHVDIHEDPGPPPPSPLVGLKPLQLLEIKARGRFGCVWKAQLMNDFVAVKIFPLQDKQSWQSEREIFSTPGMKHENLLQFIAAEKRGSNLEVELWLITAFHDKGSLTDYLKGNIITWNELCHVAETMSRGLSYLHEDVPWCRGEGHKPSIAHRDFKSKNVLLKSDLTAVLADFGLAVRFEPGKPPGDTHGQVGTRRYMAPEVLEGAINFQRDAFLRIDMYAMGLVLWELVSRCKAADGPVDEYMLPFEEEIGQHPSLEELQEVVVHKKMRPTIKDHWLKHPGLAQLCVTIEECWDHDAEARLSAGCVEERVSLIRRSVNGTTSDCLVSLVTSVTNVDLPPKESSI
Chain of UniProt P49674 (whole entry, looked up): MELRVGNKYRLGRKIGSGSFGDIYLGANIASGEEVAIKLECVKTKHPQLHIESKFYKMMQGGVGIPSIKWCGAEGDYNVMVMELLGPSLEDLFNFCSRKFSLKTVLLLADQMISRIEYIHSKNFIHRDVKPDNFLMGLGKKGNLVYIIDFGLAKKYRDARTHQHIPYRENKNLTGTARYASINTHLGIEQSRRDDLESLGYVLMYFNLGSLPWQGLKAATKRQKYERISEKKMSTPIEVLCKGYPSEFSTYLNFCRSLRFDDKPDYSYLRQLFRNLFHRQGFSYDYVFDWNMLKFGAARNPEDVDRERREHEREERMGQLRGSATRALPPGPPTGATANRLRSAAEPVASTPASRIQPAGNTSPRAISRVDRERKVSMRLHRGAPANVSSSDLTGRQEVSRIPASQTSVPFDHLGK
Chain of UniProt Q9Y616 (whole entry, looked up): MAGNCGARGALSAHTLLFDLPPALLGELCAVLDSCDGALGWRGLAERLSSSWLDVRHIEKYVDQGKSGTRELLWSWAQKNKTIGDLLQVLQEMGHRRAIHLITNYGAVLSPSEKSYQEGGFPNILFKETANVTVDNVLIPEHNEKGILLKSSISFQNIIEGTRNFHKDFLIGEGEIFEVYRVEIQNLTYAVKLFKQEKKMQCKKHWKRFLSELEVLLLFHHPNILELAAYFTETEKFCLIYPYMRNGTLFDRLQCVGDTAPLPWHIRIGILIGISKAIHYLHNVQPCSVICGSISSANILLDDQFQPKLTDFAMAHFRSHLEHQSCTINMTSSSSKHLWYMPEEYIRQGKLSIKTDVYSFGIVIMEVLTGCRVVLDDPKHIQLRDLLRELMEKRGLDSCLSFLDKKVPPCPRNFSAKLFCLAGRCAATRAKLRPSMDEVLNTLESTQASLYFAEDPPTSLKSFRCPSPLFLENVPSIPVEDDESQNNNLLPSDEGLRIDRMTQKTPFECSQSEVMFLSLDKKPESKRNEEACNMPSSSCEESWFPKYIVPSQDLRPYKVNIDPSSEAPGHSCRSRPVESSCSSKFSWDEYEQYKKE
Chain of UniProt Q8NEV4 (whole entry, looked up): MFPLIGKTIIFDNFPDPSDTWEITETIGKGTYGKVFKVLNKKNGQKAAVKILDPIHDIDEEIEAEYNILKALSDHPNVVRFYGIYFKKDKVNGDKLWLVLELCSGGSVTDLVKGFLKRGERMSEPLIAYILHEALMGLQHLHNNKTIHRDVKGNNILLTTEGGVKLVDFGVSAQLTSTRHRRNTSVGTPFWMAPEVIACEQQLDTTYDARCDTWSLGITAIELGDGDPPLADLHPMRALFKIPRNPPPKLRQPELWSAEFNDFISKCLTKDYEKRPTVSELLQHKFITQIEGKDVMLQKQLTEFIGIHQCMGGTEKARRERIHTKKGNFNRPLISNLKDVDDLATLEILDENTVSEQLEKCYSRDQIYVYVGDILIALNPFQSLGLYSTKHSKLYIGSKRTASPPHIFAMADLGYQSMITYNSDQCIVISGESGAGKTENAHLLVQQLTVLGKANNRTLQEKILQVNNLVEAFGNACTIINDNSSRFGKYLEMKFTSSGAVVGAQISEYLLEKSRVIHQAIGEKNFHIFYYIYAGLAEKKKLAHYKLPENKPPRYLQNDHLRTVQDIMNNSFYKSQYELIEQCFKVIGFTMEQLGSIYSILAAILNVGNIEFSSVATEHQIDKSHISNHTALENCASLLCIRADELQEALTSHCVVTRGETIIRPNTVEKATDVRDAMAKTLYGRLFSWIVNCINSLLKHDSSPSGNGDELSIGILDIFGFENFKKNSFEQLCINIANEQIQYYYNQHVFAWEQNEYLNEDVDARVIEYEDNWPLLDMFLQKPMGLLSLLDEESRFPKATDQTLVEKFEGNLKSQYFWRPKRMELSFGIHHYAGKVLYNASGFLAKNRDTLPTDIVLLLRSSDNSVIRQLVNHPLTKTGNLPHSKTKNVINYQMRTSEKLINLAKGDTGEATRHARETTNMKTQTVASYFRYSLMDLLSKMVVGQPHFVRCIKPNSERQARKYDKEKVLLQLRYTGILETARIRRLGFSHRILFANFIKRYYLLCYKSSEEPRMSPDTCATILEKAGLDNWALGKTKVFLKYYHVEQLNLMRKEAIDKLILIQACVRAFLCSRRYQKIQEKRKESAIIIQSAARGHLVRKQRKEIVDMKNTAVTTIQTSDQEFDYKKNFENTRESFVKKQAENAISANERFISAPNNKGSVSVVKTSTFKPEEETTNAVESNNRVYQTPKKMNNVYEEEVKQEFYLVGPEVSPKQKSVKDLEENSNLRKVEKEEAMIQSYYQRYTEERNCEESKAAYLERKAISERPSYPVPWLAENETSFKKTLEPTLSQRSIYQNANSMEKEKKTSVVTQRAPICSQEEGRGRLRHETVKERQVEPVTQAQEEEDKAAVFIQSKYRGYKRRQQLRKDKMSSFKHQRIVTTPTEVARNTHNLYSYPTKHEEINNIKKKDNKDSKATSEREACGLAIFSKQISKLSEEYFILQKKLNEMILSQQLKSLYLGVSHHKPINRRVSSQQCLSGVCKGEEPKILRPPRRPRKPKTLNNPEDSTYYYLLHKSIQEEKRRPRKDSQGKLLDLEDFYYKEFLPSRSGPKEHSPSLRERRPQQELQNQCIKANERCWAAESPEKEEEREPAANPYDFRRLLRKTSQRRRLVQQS
Chain of UniProt Q86Y07 (whole entry, looked up): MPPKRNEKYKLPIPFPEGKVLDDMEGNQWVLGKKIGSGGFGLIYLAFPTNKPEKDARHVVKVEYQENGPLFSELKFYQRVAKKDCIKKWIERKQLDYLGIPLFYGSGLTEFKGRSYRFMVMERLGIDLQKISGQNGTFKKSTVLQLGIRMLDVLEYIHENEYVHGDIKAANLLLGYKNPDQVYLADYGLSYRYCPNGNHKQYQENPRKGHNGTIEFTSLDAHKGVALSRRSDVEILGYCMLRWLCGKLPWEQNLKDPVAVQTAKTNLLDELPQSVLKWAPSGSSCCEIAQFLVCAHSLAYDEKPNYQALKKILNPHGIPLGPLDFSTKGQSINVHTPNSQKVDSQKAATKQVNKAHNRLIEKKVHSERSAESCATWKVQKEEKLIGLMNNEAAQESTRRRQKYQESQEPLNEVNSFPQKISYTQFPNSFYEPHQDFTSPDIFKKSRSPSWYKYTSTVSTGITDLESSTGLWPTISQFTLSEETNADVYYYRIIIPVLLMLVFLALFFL
Chain of UniProt P51451 (whole entry, looked up): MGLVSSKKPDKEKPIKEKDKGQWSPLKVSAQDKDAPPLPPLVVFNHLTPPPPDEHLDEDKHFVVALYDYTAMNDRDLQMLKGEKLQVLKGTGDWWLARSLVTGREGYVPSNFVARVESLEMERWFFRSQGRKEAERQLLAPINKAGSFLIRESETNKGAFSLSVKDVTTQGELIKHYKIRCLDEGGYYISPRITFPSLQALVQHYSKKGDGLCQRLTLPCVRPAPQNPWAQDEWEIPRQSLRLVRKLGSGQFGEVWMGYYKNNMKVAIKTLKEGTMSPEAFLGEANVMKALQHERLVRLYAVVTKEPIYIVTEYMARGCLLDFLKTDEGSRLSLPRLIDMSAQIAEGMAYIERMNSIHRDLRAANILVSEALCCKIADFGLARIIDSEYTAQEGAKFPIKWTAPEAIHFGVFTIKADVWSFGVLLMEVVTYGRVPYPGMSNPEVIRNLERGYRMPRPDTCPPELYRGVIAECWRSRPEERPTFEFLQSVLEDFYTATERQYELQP

Set 1
Host: human
Sample: microsomes or S9
Concentration: 2 µM
Time: 0.5 h
Compound	remaining compound
Cc1cc(C)c(NC(=O)CN(C)S(=O)(=O)c2ccc3[nH]c(=O)ccc3c2)c(C)c1	> 100%
COC(=O)c1ccc2nc(Nc3nc4ccc(F)cc4s3)sc2c1	2.95%
CN(C(=O)CN(c1ccc(Cl)c(Cl)c1)S(=O)(=O)c1ccccc1)C(CN1CCCC1)c1ccc(-c2cccnc2)cc1 (stereo not drawn)	16.2%
Nc1ncnc2c1c(-c1cccc(OCc3ccccc3)c1)cn2C1CC(CN2CCCC2)C1 (stereo in doubt)	89.9%
CC(C)CC(=O)NCC12CCCC=C1N(C)C(=O)CC2 (stereo not drawn)	76.7%
CCN(CC)C1c2cccc3cccc(c23)C1NS(=O)(=O)c1ccccc1 (stereo not drawn)	3.11%

Set 2
Organism: Sarcocystis neurona
Effect on: parasite growth
Concentration: 10 µM
Notes: secondary screen
Structure (SMILES)	inhibition [%]
CC(C)(C)NC(=O)[C@@H]1C[C@@H]2CCCC[C@@H]2CN1C[C@@H](O)[C@H](Cc1ccccc1)NC(=O)[C@H](CC(N)=O)NC(=O)c1ccc2ccccc2n1	11.7
C[C@H]1[C@H](OC(=O)CCC(=O)O)O[C@@H]2O[C@@]3(C)CC[C@H]4[C@H](C)CC[C@@H]1[C@@]24OO3	76.3
CC(C)c1ccc2c(c1)c(SC(C)(C)C)c(CC(C)(C)C(=O)O)n2Cc1ccc(Cl)cc1	-0.117
CO/N=C(\C(=O)N[C@@H]1C(=O)N2C(C(=O)O)=C(COC(N)=O)CS[C@H]12)c1ccco1	-38.4
CN(C)CCCN1c2ccccc2Sc2ccc(Cl)cc21	48.9
CN(C)C(=O)C(CCN1CCC(O)(c2ccc(Cl)cc2)CC1)(c1ccccc1)c1ccccc1	27.5
CC(C)NCC(O)COc1ccc(CC(N)=O)cc1 (stereo not drawn)	-2.7

Set 3
Technique: PRP chromatography
Notes: linear fit, 1 mL
SMILES	logD 1,9-decadiene/water [log units]
CC(C)C[C@@H]1NC(=O)[C@H](CC(C)C)NC(=O)[C@@H](CC(C)C)NC(=O)[C@@H](CC(C)C)NC(=O)[C@H](C(C)C)NC(=O)[C@H](CC(C)C)NC(=O)[C@@H](CC(C)C)NC1=O	2.28
CC(C)C[C@@H]1NC(=O)[C@H](CC(C)C)NC(=O)[C@H](CC(C)C)NC(=O)[C@H](C(C)C)NC(=O)[C@H](C(C)C)NC(=O)[C@H](C)NC(=O)[C@H](C)NC1=O	-1.21
CC(C)C[C@@H]1NC(=O)[C@H](C)NC(=O)[C@H](CC(C)C)NC(=O)[C@@H](CC(C)C)NC(=O)[C@H](CC(C)C)NC(=O)[C@H](C)NC(=O)[C@H](CCC(=O)N2CCCC2)NC1=O	1.13
CC(C)C[C@@H]1NC(=O)[C@H](Cc2cscn2)NC(=O)[C@@H](CC(C)C)NC(=O)[C@H](CC(C)C)NC(=O)[C@@H](Cc2cscn2)NC(=O)[C@H](CC(C)C)NC(=O)[C@@H](CC(C)C)NC1=O	-4.39
CC(C)C[C@@H]1NC(=O)[C@H](CC(C)C)NC(=O)[C@@H](CC(C)C)NC(=O)[C@H](C)NC(=O)[C@H](C(C)C)NC(=O)[C@H](C)NC(=O)[C@H](C)NC1=O	-2.15
CC(C)C[C@@H]1NC(=O)[C@H](C)NC(=O)[C@@H](CC(C)C)NC(=O)[C@H](C)NC(=O)[C@H](CC(C)C)NC(=O)[C@H](CC(C)C)NC(=O)[C@@H](CC(C)C)NC1=O	-0.18

Set 4
SMILES: Cc1nc(Cc2cccc(C(F)(F)F)c2)sc1-c1ccc(C(N)=O)nc1
Technique: competition with immobilised ligand
Concentration: 1 µM
target	test	remaining binding
Myosin-IIIb (MYO3B, Homo sapiens, UniProt Q8WXR4)	binding	100%
EGFR (Homo sapiens, UniProt P00533, A750P/del747-749)	cell-free assay	100%
Cyclin-dependent kinase 4, with cyclin D3 (CDK4, Homo sapiens, UniProt P11802)	cell-free assay	90%
STK39 (Homo sapiens, UniProt Q9UEW8)	cell-free assay	100%
ACVR2B (Homo sapiens, UniProt Q13705)	binding	86%
CAMK4 (Homo sapiens, UniProt Q16566)	cell-free assay	100%
CSNK1E (Homo sapiens, UniProt P49674)	cell-free assay	100%
FLT3 (Homo sapiens, UniProt P36888, K663Q)	cell-free assay	88%
IRAK3 (Homo sapiens, UniProt Q9Y616)	cell-free assay	100%
KDR (Homo sapiens, UniProt P35968)	cell-free assay	86%
SGK2 (Homo sapiens, UniProt Q9HBY8)	cell-free assay	95%
EGFR (Homo sapiens, UniProt P00533, del747-752/P753S)	cell-free assay	83%
PIP4K2B (Homo sapiens, UniProt P78356)	cell-free assay	88%
Macrophage colony-stimulating factor 1 receptor, autoinhibited (CSF1R, Homo sapiens, UniProt P07333)	cell-free assay	100%
RET (Homo sapiens, UniProt P07949, M918T)	cell-free assay	95%
ERBB4 (Homo sapiens, UniProt Q15303)	cell-free assay	74%
PDGFRB (Homo sapiens, UniProt P09619)	cell-free assay	92%
NEK7 (Homo sapiens, UniProt Q8TDX7)	cell-free assay	98%
Myosin-IIIa (MYO3A, Homo sapiens, UniProt Q8NEV4)	binding	98%
BLK (Homo sapiens, UniProt P51451)	cell-free assay	100%
PRKX (Homo sapiens, UniProt P51817)	cell-free assay	100%
Tyrosine-protein kinase JAK3, JH1 (JAK3, Homo sapiens, UniProt P52333)	cell-free assay	100%
VRK2 (Homo sapiens, UniProt Q86Y07)	cell-free assay	100%
Tyrosine-protein kinase ABL1, phosphorylated (ABL1, Homo sapiens, UniProt P00519, Y253F)	cell-free assay	88%
CDK14 (Homo sapiens, UniProt O94921)	cell-free assay	100%

Set 5
Structure (SMILES): CC(C)n1cnc(-c2ccc(F)cc2)c1-c1ncc(C(=O)Nc2ccc(N3CCN(C)CC3)cc2)[nH]1
Technique: phase 2a trial
Host: idiopathic pulmonary fibrosis patients
setting	patients with constipation
30 mg once daily, adverse event grade 2	0%
30 mg once daily, adverse event grade 4	0%
60 mg once daily, adverse event grade 3	0%
30 mg once daily, adverse event grade 1	0%
30 mg once daily, adverse event grade 5	0%
60 mg once daily, adverse event grade 2	0%
30 mg once daily, adverse event grade 3	0%

Excerpt of the above (set 4):
target	test	remaining binding
Cyclin-dependent kinase 4, with cyclin D3 (CDK4, Homo sapiens, UniProt P11802)	cell-free assay	90%
STK39 (Homo sapiens, UniProt Q9UEW8)	cell-free assay	100%
ACVR2B (Homo sapiens, UniProt Q13705)	binding	86%
